# Experimental data of several laboratories.
# A part holds a random share of what one study measured. Values joined by “and” are separate records of one study, mostly repeats; a detail may differ.
# Chain of UniProt Q15349 (whole entry, looked up): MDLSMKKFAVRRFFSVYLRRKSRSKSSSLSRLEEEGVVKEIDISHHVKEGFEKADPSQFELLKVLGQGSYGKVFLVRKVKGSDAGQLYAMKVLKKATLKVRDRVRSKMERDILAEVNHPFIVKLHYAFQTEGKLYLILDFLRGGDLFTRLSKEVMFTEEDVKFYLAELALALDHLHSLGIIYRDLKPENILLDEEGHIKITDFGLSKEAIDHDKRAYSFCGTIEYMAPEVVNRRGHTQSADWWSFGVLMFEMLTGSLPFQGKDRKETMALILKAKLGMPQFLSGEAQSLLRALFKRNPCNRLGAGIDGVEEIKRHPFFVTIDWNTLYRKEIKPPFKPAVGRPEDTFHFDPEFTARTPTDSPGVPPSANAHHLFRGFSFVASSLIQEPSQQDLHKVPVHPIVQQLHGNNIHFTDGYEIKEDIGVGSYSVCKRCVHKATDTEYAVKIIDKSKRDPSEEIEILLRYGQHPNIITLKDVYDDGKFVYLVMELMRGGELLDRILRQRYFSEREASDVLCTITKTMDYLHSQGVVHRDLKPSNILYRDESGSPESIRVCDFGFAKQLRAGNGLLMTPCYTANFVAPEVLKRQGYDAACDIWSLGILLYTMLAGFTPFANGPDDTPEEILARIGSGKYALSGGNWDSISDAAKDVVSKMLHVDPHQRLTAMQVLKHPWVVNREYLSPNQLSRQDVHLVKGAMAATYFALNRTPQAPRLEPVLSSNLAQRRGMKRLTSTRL
# Chain of UniProt P10398 (whole entry, looked up): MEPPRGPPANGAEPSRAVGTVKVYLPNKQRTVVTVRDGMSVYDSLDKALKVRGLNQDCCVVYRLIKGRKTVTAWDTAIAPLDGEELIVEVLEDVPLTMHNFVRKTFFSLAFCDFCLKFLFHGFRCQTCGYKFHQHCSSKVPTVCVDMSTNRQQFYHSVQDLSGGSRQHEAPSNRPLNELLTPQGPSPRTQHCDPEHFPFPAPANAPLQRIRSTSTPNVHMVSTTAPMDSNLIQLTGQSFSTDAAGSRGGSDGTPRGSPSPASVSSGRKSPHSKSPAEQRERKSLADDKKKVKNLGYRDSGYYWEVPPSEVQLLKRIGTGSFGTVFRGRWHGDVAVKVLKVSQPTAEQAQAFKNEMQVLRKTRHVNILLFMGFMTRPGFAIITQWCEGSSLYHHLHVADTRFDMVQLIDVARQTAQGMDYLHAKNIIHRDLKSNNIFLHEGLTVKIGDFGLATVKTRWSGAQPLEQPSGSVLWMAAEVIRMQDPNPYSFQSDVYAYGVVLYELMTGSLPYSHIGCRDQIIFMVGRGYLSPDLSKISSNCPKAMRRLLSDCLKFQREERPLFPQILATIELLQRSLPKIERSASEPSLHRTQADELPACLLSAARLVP
# Chain of UniProt P49137 (whole entry, looked up): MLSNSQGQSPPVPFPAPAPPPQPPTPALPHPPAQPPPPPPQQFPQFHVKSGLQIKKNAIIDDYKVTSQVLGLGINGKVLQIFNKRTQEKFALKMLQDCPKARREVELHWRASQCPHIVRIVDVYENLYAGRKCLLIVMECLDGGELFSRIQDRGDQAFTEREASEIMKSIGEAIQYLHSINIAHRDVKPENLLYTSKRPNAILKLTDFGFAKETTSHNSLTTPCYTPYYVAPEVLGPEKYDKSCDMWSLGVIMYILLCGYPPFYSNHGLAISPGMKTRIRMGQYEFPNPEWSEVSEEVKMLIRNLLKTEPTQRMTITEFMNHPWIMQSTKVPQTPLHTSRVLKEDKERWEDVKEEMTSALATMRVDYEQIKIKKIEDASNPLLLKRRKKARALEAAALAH
# Chain of UniProt P10721 (whole entry, unmodified, looked up): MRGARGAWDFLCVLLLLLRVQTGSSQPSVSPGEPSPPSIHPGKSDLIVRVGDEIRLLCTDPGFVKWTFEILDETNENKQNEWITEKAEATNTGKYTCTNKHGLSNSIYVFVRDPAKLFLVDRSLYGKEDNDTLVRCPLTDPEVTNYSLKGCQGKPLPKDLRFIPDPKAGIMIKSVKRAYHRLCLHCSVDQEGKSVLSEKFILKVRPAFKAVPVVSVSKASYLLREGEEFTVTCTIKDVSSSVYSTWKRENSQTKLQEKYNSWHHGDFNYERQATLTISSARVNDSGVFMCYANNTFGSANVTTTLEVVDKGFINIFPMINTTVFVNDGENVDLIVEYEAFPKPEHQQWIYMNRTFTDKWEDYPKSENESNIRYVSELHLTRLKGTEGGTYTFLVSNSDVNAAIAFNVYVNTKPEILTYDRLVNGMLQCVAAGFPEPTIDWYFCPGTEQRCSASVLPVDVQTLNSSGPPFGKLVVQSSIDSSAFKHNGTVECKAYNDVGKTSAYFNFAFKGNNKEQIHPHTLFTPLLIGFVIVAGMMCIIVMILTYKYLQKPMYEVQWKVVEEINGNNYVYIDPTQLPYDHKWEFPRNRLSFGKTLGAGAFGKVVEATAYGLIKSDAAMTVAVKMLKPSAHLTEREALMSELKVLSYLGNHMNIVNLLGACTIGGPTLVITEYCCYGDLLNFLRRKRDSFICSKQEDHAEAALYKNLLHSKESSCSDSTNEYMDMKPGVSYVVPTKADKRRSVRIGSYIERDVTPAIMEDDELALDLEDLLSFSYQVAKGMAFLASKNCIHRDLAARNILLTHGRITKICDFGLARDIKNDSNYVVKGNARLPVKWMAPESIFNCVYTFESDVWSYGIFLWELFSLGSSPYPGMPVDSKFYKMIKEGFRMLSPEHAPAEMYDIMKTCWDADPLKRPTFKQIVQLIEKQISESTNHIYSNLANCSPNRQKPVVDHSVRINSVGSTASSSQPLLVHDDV
# Chain of UniProt Q02763 (whole entry, looked up): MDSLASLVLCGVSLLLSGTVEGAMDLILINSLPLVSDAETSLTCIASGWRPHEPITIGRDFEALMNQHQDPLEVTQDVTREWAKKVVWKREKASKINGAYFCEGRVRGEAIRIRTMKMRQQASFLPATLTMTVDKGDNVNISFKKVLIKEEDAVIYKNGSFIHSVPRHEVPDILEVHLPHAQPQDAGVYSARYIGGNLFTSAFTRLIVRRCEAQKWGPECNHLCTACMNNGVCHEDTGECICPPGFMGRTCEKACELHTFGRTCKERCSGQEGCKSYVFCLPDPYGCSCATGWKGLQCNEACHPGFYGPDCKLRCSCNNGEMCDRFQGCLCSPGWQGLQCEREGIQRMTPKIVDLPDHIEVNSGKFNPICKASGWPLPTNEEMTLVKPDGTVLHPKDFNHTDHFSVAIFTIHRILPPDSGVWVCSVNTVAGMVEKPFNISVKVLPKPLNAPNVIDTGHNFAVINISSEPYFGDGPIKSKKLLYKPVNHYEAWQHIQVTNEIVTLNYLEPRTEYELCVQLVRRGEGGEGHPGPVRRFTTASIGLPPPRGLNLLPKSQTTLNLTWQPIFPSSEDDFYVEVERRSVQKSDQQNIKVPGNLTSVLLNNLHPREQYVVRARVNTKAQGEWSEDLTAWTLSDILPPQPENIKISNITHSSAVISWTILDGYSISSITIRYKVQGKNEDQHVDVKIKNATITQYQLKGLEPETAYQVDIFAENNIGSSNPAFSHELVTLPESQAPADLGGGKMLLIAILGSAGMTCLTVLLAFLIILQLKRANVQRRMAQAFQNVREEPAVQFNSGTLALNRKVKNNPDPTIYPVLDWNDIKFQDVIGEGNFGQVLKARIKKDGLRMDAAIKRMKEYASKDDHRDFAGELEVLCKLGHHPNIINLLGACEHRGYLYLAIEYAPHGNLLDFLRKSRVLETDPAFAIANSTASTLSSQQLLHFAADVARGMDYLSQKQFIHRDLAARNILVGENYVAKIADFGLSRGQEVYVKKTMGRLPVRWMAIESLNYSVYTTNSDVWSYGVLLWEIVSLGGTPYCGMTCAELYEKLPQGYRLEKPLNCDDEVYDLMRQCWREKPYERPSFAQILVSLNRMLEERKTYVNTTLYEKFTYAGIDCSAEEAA
# Chain of UniProt Q13043 (whole entry, looked up): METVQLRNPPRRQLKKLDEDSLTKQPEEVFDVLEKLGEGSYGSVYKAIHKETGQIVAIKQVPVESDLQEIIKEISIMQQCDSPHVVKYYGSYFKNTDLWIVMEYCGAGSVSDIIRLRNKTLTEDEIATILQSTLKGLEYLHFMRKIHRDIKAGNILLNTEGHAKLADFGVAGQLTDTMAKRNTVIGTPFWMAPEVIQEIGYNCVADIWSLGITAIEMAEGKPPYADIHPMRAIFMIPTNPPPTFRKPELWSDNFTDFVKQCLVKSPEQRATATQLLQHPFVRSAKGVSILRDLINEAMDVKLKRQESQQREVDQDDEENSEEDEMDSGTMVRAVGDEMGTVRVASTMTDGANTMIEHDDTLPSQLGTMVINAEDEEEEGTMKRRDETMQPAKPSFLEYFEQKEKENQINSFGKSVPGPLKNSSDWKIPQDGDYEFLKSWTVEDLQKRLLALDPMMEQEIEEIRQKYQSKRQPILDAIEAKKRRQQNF

# Block 1 — effect on: cell-free assay; technique: competition with immobilised ligand; tested at: 1 µM
# Compound: CN(C)c1ncnc(-c2ccc3nc(Nc4cc(CN5CCN(C(=O)CC(F)(F)F)CC5)ccn4)[nH]c3c2)c1Cl
target,remaining binding [%]
"Ribosomal protein S6 kinase alpha-2, C-terminal kinase domain (RPS6KA2, Homo sapiens, UniProt Q15349)",100
"DDR1 (Homo sapiens, UniProt Q08345)",75
"NEK11 (Homo sapiens, UniProt Q8NG66)",55
"PIK3CA (Homo sapiens, UniProt P42336, H1047Y)",74
"SRMS (Homo sapiens, UniProt Q9H3Y6)",88
"Tyrosine-protein kinase ABL1, non-phosphorylated (ABL1, Homo sapiens, UniProt P00519)",26
"DYRK1A (Homo sapiens, UniProt Q13627)",77
"STK4 (Homo sapiens, UniProt Q13043)",95
"KIT (Homo sapiens, UniProt P10721, L576P)",87
"HIPK1 (Homo sapiens, UniProt Q86Z02)",74

# Block 2 — effect on: enzyme activity; mode: inhibitor; tested at: 10 µM
# Target: Calcium/calmodulin-dependent protein kinase type II subunit alpha (CAMK2A, Homo sapiens, UniProt Q9UQM7)
# Chain of UniProt Q9UQM7 (whole entry, looked up): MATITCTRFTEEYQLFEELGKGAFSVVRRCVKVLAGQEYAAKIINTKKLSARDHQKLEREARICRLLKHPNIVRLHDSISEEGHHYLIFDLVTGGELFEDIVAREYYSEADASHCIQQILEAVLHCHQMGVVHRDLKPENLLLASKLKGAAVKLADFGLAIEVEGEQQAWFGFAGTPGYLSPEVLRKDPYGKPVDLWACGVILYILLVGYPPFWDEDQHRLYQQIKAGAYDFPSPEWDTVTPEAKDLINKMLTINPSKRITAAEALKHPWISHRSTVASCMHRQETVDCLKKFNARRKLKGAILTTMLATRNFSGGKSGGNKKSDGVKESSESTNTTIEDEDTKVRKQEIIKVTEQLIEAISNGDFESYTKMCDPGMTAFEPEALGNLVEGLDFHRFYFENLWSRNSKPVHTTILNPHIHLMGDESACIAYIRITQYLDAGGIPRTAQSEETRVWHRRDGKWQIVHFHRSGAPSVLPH
SMILES,inhibition [%]
O=C1OC2(c3ccc(O)cc3Oc3cc(O)ccc32)c2ccccc21,2
C[C@H](CCC(=O)NCC(=O)O)[C@H]1CC[C@H]2[C@@H]3[C@@H](O)C[C@@H]4C[C@H](O)CC[C@]4(C)[C@H]3CC[C@]12C,38
CC(CC(=O)O)CC(=O)O,11
C/C=C/C/C=C/CCC(=O)[C@H]1O[C@H]1C(N)=O,9
CC1(C)C[C@@H]1C(=O)N/C(=C\CCCCSC[C@H](N)C(=O)O)C(=O)O,-5
O=C(CCc1ccc(O)cc1)c1c(O)cc(O[C@@H]2O[C@H](CO)[C@@H](O)[C@H](O)[C@H]2O)cc1O,21
CCc1cnn2c(NCc3ccc[n+]([O-])c3)cc(N3CCCC[C@H]3CCO)nc12,2

# Block 3 — effect on: enzyme activity; mode: inhibitor; tested at: 0.5 µM; reference: control
# Compound: CC(C)[C@H](CO)Nc1nc(Nc2cccc(Cl)c2)c2ncn(C(C)C)c2n1
target,remaining activity [%]
"MAP3K14 (Homo sapiens, UniProt Q99558)",112
"TEK (Homo sapiens, UniProt Q02763)",93.8
"ARAF (Homo sapiens, UniProt P10398)",96.5
"ULK2 (Homo sapiens, UniProt Q8IYT8)",97.7
"ABL2 (Homo sapiens, UniProt P42684)",32.2
"MAPK3 (Homo sapiens, UniProt P27361)",104
"TAOK2 (Homo sapiens, UniProt Q9UL54)",91.3
"GRK7 (Homo sapiens, UniProt Q8WTQ7)",88.8
"MAPKAPK2 (Homo sapiens, UniProt P49137)",102
"EPHA3 (Homo sapiens, UniProt P29320)",105
"CSNK1G3 (Homo sapiens, UniProt Q9Y6M4)",17.3
"MAP3K5 (Homo sapiens, UniProt Q99683)",108
"JAK3 (Homo sapiens, UniProt P52333)",92.5
"RPS6KA2 (Homo sapiens, UniProt Q15349)",69.4
"ULK3 (Homo sapiens, UniProt Q6PHR2)",59.6

# Block 4
# SMILES: CC(C)C[C@@H]1NC(=O)[C@@H](N(C)C(=O)[C@H](CC2CCC2)NC(=O)[C@@H]2C[C@@H](F)CN2C(=O)C2(C(F)(F)F)CC(F)(F)C2)CCCCNC(=O)C2(CC2)NC(=O)[C@H](Cc2cc(Cl)ccc2Cl)N(C)C1=O
cell line,technique,tested at,time,reference,cell count
A549,Vi-Cell counting,200 nM,6 days,DMSO,0.823 and 0.707 and 0.85
A549,Vi-Cell counting,600 nM,6 days,DMSO,0.73 and 0.597 and 0.464
HCC4006,Vi-Cell counting,60 nM,6 days,DMSO,1 and 0.828 and 0.899
NCI-H446 sgCtrl,dose-response,2 nM,6 d,DMSO-treated,0.296 and 0.334 and 0.382
NCI-H82,Vi-Cell counting,600 nM,6 days,DMSO,0.73 and 0.75 and 0.85
NCI-H1299,Vi-Cell counting,60 nM,6 days,DMSO,1.01 and 0.789 and 0.965

# Some of these lines once more (block 2):
SMILES,inhibition [%]
CC1(C)C[C@@H]1C(=O)N/C(=C\CCCCSC[C@H](N)C(=O)O)C(=O)O,-5
O=C1OC2(c3ccc(O)cc3Oc3cc(O)ccc32)c2ccccc21,2
CCc1cnn2c(NCc3ccc[n+]([O-])c3)cc(N3CCCC[C@H]3CCO)nc12,2
CC(CC(=O)O)CC(=O)O,11
C[C@H](CCC(=O)NCC(=O)O)[C@H]1CC[C@H]2[C@@H]3[C@@H](O)C[C@@H]4C[C@H](O)CC[C@]4(C)[C@H]3CC[C@]12C,38
O=C(CCc1ccc(O)cc1)c1c(O)cc(O[C@@H]2O[C@H](CO)[C@@H](O)[C@H](O)[C@H]2O)cc1O,21
